# Results gathered from unrelated publications.
# Lines come from different studies, so protocols differ. ± marks the error that the study gave.
# MAD2L2 R124A: MAD2L2 R124A (Homo sapiens, UniProt Q9UI95)
# MAVS: MAVS 1-513 (Homo sapiens, UniProt Q7Z434)
# Chain of UniProt Q7Z434 (whole entry, unmodified, looked up): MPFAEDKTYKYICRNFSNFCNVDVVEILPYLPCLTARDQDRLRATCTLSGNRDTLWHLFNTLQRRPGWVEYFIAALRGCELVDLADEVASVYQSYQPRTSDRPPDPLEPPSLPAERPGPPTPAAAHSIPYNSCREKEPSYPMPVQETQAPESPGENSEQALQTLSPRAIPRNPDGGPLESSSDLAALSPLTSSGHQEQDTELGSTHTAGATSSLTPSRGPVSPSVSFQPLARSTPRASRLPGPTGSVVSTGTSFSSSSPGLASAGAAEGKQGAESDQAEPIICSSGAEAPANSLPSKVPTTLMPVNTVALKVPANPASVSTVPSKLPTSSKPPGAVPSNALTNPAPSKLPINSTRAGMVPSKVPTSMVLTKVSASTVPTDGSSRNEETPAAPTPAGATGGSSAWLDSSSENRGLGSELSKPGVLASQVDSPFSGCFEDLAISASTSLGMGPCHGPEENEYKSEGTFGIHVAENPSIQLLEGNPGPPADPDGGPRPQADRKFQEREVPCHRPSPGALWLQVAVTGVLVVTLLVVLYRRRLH
# T1: NR1I2 ligand-binding domain, GST fusion (Homo sapiens); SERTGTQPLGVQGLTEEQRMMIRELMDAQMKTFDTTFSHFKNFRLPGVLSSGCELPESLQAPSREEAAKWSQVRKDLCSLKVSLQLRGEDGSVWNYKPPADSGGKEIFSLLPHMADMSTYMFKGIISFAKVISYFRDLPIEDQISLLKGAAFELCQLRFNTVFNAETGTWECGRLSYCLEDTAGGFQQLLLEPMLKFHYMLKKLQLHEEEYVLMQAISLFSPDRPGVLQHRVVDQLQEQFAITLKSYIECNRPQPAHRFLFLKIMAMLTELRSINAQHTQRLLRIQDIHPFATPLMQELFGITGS
# B1: Mena EVH1 1-113 (Homo sapiens, UniProt Q8N8S7); chain MSEQSICQARAAVMVYDDANKKWVPAGGSTGFSRVHIYHHTGNNTFRVVGRKIQDHQVVINCAIPKGLKYNQATQTFHQWRDARQVYGLNFGSKEDANVFASAMMHALEVLNS
# B2: TNKS2 ARC4 domain (Homo sapiens); fluorescent label; chain GNSEADRQLLEAAKAGDVETVKKLCTVQSVNCRDIEGRQSTPLHFAAGYNRVSVVEYLLQHGADVHAKDKGGLVPLHNACSYGHYEVAELLVKHGAVVNVADLWKFTPLHEAAAKGKYEICKLLLQHGADPTKKNRDGNTPLDLVKDGDTDIQDLLRGDAAL
# B3: FAM222A 151-452 (Homo sapiens, UniProt Q5U5X8); sequence looked up; chain PSTLGPLAYPKPPEAPAPPPGLPAAATAASVIPLPGRGLPLPPSNLPSIHSLLYQLNQQCQAPGAAPPACQGMAIPHPSPAKHGPVPSFPSMAYSAAAGLPDCRKGTELGQGATQALTLAGAAKPAGYADSGLDYLLWPQKPPPPPPQPLRAYSGSTVASKSPEACGGRAYERASGSPLNCGVGLPTSFTVGQYFAAPWNSVLVTPTSDCYNPAAAVVVTELGPGAARELAGPPADALSGLPSKSVCNTSVLSSSLQSLEYLINDIRPPCIKEQMLGKGYETVAVPRLLDHQHAHIRLPVYR
# B4: vraS intracellular domain D242G (Staphylococcus aureus, UniProt Q99SZ7); sequence looked up; chain GSVLAYKINQQNDWIKTQIERSMEGETVGINDQNIEIYSETLDLYHTLVPLNQELHKLRLKTQNLTNENYNINDVKVKKIIEDERQRLARELHDSVSQQLFAASMMLSAIKETKLEPPLDQQIPILEKMVQDSQLEMRALLLHLRPLGLKDKSLGEGIKDLVIDLQKKVPMKVVHEIQGFKVPKGIEDHLFRITQEAISNTLRHSNGTKVTVELFNKDDYLLLRIQDNGKGFNVDEKLEQSYGLKNMRERALEIGATFHIVSLPDSGTRIEVKAPLNKEDSYDD
# Chain of UniProt Q03405 (whole entry, looked up): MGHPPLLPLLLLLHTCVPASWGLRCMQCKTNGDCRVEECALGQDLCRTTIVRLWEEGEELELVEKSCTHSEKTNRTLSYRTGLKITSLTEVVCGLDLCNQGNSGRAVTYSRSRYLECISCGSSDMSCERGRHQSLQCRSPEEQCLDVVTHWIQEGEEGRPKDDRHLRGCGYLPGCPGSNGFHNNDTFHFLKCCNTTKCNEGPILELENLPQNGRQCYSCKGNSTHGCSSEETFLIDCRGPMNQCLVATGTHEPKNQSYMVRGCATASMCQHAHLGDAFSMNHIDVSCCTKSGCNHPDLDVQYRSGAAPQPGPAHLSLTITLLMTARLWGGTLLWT
# Chain of UniProt P08603 (whole entry, looked up): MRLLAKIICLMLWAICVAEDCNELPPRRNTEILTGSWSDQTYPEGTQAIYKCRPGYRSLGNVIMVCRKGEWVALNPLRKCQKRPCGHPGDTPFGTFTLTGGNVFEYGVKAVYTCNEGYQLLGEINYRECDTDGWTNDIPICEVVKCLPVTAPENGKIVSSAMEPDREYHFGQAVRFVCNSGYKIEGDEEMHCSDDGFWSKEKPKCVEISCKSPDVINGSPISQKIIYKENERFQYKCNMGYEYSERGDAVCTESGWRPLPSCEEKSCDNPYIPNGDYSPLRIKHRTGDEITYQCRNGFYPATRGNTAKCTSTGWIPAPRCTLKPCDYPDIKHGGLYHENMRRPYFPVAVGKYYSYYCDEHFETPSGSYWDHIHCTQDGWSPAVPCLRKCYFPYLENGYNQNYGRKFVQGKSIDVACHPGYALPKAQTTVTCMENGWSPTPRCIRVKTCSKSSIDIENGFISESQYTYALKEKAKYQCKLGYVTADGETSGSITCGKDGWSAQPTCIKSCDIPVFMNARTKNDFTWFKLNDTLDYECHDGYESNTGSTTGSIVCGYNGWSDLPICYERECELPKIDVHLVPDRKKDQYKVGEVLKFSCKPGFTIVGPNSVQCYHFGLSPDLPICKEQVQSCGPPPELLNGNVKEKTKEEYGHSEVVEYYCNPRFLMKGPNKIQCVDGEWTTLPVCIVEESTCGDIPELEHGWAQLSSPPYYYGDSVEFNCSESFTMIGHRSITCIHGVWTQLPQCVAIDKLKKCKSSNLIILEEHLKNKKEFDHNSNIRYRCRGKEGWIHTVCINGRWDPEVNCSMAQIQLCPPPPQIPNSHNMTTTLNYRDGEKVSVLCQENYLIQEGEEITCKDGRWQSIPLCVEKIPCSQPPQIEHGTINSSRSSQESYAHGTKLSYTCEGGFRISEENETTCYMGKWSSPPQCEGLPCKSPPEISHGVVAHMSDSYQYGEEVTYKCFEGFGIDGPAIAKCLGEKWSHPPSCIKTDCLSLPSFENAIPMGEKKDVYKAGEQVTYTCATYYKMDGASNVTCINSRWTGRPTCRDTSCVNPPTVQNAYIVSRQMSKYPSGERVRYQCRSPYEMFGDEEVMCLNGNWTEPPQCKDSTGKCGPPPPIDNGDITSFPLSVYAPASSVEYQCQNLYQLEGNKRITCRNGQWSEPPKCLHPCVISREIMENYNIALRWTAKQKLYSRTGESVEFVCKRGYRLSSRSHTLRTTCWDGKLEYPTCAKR
# Chain of UniProt P05164 (whole entry, unmodified, looked up): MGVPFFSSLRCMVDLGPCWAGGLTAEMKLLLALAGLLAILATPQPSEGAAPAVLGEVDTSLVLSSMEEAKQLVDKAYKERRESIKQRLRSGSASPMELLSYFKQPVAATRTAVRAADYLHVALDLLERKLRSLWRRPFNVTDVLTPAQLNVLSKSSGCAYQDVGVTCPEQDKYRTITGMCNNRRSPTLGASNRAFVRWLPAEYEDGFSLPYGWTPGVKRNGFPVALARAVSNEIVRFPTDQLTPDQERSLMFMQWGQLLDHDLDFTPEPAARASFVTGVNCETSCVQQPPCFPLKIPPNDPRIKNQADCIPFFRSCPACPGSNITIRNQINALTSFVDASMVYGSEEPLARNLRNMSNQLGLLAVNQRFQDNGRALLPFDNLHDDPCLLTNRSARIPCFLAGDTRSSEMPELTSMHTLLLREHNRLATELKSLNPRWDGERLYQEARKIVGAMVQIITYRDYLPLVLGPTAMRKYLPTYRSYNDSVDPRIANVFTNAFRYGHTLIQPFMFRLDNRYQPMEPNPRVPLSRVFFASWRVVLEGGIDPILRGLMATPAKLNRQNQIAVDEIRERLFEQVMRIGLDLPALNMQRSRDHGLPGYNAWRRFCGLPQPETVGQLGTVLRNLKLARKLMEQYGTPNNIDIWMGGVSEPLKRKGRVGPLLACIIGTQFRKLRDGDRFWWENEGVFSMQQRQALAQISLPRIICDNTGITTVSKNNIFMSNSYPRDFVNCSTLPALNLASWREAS
# Chain of UniProt O94885 (whole entry, looked up): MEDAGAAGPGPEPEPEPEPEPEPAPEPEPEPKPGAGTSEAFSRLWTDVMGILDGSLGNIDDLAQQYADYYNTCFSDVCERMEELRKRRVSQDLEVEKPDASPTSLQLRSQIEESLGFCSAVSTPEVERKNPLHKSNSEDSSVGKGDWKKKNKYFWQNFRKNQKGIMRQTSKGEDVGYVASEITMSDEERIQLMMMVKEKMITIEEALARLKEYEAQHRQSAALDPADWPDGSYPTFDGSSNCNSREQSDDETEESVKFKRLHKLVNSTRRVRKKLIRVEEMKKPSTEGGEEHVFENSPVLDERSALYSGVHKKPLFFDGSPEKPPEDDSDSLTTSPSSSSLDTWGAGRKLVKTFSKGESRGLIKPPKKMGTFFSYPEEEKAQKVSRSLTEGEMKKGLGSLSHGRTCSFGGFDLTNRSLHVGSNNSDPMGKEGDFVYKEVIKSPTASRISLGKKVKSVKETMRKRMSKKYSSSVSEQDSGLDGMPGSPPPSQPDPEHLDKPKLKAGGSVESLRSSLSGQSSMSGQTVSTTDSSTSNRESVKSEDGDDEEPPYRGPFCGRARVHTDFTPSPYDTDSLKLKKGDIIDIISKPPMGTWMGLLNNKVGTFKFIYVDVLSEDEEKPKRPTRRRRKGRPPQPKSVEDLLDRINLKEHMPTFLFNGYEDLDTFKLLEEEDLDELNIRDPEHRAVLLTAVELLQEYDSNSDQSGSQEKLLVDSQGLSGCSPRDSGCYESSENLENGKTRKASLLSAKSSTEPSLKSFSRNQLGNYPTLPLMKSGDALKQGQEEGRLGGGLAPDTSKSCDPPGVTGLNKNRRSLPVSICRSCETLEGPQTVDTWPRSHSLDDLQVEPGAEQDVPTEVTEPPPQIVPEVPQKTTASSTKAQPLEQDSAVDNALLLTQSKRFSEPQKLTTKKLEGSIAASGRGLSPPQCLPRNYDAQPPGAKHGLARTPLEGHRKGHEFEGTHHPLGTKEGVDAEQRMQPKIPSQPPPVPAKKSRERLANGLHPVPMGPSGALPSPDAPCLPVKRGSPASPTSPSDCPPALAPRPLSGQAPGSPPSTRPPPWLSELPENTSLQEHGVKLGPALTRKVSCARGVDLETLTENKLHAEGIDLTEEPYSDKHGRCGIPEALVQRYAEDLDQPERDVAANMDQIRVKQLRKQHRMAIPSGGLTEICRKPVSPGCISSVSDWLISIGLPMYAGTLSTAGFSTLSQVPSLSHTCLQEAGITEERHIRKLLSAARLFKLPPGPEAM
Substance,partner,assay,test system,conditions,scale,measurement,value
"CPSSHSSLTERHKILHRLLQEGSPS (NCOA1 676-700 peptide; N-terminal FAM, PEG5 linker, C-terminal amide)","T1, NR1I2 ligand-binding domain, GST fusion (Homo sapiens)",TR-FRET,peptide,,,Kd,115 nM
B1 (Mena EVH1 1-113),"ActA, N-terminal 5-TAMRA (Listeria monocytogenes)",fluorescence polarization,,,,Kd,15300 nM
"PCKCAPSRQLVQVWLQAKE (REV3L RBM2, 1996-2014 (Homo sapiens))",MAD2L2 R124A,"competition with FAM-REV3 peptide, competitor, fluorescence polarisation",peptide,,,IC50,8900 ± 300 nM
B2 (TNKS2 ARC4 domain),"SASH1 396-564 (Homo sapiens, UniProt O94885)",MST,,,,Kd,1700 ± 400 nM
"PRTANILKPLMSPPSREEIMATLLDHD (REV3L RBM1, 1872-1898 (Homo sapiens))",MAD2L2 R124A,"competition with FAM-REV3 peptide, competitor, fluorescence polarisation",peptide,,,IC50,3400 ± 400 nM
"PLAUR (Homo sapiens, UniProt Q03405)","F12 zymogen, FITC label (Homo sapiens)",MST,,added: Zn2+,,Kd,87 to 100 nM
"PRTANILKPLMSAPSREEIMATLLDHD (REV3L RBM1, 1872-1898 P1884A (Homo sapiens))",MAD2L2 R124A,"competition with FAM-REV3 peptide, competitor, fluorescence polarisation",peptide,,,IC50,8000 ± 400 nM
B3 (FAM222A 151-452),MAVS,pull-down,,,,binding,binds
"PRTANILKPLMSPPSREEIMATLLDHD (REV3L RBM1, 1872-1898 (Homo sapiens); N-terminal FAM label)",MAD2L2 R124A,SEC,peptide,added: FAM-REV3 peptide,,binding,binds
spn N-terminal deletion (Staphylococcus aureus),"MPO mature, native (Homo sapiens, UniProt P05164)",SPR,,,,Kd,48.9 nM
"FAM222A (Homo sapiens, UniProt Q5U5X8)",MAVS,pull-down,,,,binding,binds
B4,"vraR (Staphylococcus aureus, UniProt Q7A2Q1)",SPR,,,"relative to: wild type, higher = weaker binding",affinity loss,17 fold
"CFH mature (Homo sapiens, UniProt P08603)","C3b (human, UniProt P01024)",SPR,,,,binding,binds

# For quick reference, copied from above:
Substance,partner,assay,test system,conditions,scale,measurement,value
"PRTANILKPLMSAPSREEIMATLLDHD (REV3L RBM1, 1872-1898 P1884A (Homo sapiens))",MAD2L2 R124A,"competition with FAM-REV3 peptide, competitor, fluorescence polarisation",peptide,,,IC50,8000 ± 400 nM
"PRTANILKPLMSPPSREEIMATLLDHD (REV3L RBM1, 1872-1898 (Homo sapiens))",MAD2L2 R124A,"competition with FAM-REV3 peptide, competitor, fluorescence polarisation",peptide,,,IC50,3400 ± 400 nM
